Measured values of several laboratories.
Protocols differ between the studies behind these lines. Values joined by “and” are separate records of one study, mostly repeats; a detail may differ. ± gives the spread as reported.

| SMILES | tested on | assay | system | setting | how to read | endpoint | value |
| --- | --- | --- | --- | --- | --- | --- | --- |
| CC=CC1CCC(C2CCC(CCC)CC2)CC1 (centres unmarked) | – | item: compound | human pregnant women, male fetuses, maternal serum | dose not given, paired maternal-cord samples, mean | – | concentration | 0.83 ng/mL |
| CCc1c(-c2ccccc2)c(-c2ccccc2)nn1-c1ccccc1-c1cccc(OCC(=O)O)c1 | – | – | Sprague-Dawley rat, bone homogenate | oral, 10 mg/kg, 4 h | – | concentration | 317 ng/mL and 342 ng/mL |
| O=C(N[C@H](Cc1c[nH]c2ccccc12)C(=O)Nc1ccncc1)c1ccc(-c2ccc(F)c(C(F)(F)F)c2)cc1F | – | – | Swiss Webster mouse, female, brain | oral, 50 mg/kg, 2 h, 20% HPβCD vehicle | – | concentration | 100 nM |
| CN(C(=O)n1cnc(-c2cccnc2)c1)C1CCCCC1 | – | – | Wistar rat, cerebral cortex | oral, 10 mg/kg/day of BIA 10-2474, 48 h, repeated 5 days | – | concentration | 8.8 ± 0.3 ng/g |
| Cc1cnc(N2CC3(CCOCC3)C2)c(C(=O)Nc2ccc(C(=O)N3CCc4cc(C(=O)Nc5c(C)cccc5F)sc4-c4ccccc43)cc2)c1 | – | – | human, nasal epithelial lining fluid | inhaled, 5 mg twice daily, 24 h | – | concentration | 11500 ng/mL |
| Cn1cc(-c2ccc(-c3cncc(Cl)c3N3CCC4(CCNC4=O)CC3)cc2)cn1 | COLO 205 | microarray, item: CDKN2C | – | concentration not given, 2 h, gene set p18 | reference: untreated cells | fold change in expression | -2.29 |
| O=C(N[C@H](Cc1c[nH]c2ccccc12)C(=O)Nc1ccncc1)c1ccc(-c2cc(C(F)(F)F)ccc2F)cc1F | – | – | Swiss Webster mouse, female, brain | oral, 50 mg/kg, 8 h, 20% Kolliphor vehicle | – | concentration | 3470 nM |
| CCCCCc1ccc(C(=O)Oc2ccc(C#N)c(F)c2)cc1 | – | item: compound | human pregnant women, male fetuses, maternal serum | dose not given, paired maternal-cord samples, mean | – | concentration | 0.11 ng/mL |
| COc1ccc2c(=O)n(C)c(-c3ccccc3)nc2c1 | – | – | Sprague-Dawley rat, male, large intestine | oral, 30 mg/kg, 4 h | – | concentration | 3870 ng/mL |
| O=C(N[C@H](Cc1c[nH]c2ccccc12)C(=O)Nc1ccncc1)c1ccc(-c2ccc(F)c(Cl)c2)cc1F | – | – | Swiss Webster mouse, female, brain | oral, 50 mg/kg, 2 h, 20% Kolliphor vehicle | – | concentration | 700 nM |
| CCCCOc1ccc([C@H]2CC[C@H](CCC)CC2)c(F)c1F | – | item: compound | human pregnant women, male fetuses, maternal serum | dose not given, paired maternal-cord samples, mean | – | concentration | 6.1 ng/mL |

Excerpt of the above:
| SMILES | tested on | assay | system | setting | how to read | endpoint | value |
| --- | --- | --- | --- | --- | --- | --- | --- |
| O=C(N[C@H](Cc1c[nH]c2ccccc12)C(=O)Nc1ccncc1)c1ccc(-c2cc(C(F)(F)F)ccc2F)cc1F | – | – | Swiss Webster mouse, female, brain | oral, 50 mg/kg, 8 h, 20% Kolliphor vehicle | – | concentration | 3470 nM |
